{"data": "Published values from different studies", "note": "Lines come from different studies, so protocols differ. Values joined by “and” are separate records of one study, mostly repeats; a detail may differ. Numbers after ± are the reported error."}
{"Molecule": "Nc1ncnc2c([C@@H]3N[C@H](CO)[C@@H](O)[C@H]3O)c[nH]c12", "target or system": "Marburg marburgvirus", "test": "viral glycoprotein surface expression", "system": "HeLa, Musoke", "conditions": "25 µM", "quantity": "inhibition", "result": "95.3%"}
{"Molecule": "CCCCCCCCCCCCCCNC(=O)CP(=O)(O)O", "target or system": "Bacillus anthracis", "system": "Vollum", "quantity": "MIC90", "result": "1.56 µg/mL"}
{"Molecule": "Plantazolicin", "target or system": "Bacillus anthracis", "system": "Sterne", "quantity": "MIC", "result": "2 µg/mL"}
{"Molecule": "CNC(=O)[C@@H](NC(=O)[C@H](CC(C)C)[C@H](O)C(=O)NO)C(C)(C)C", "test": "prothrombin time", "system": "human platelet-poor plasma", "conditions": "1 µM, with: GA venom", "quantity": "inhibition", "result": "15% and 12.4% and 14.2%"}
{"Molecule": "CCCCCCCCCCCCN(C)C(=O)CP(=O)(O)O", "target or system": "Bacillus anthracis", "system": "Vollum", "quantity": "MIC90", "result": "0.097 µg/mL"}
{"Molecule": "CC(C)C(C)CCCCCCCCCCCc1cc(O)cc(O)c1 (stereo not drawn)", "target or system": "Bacillus anthracis", "system": "34F2", "quantity": "IC50", "result": "26.8 µM"}
{"Molecule": "FC(F)(F)c1cc(-c2nnc(Sc3cc(Cl)nc(Sc4ccccc4)n3)[nH]2)cc(C(F)(F)F)c1", "target or system": "Bacillus anthracis", "system": "Sterne", "conditions": "16 h", "quantity": "MIC", "result": "1.6 µM"}
{"Molecule": "CCCCCCCCCCCCCCCc1cc(O)cc(O)c1", "target or system": "Bacillus anthracis", "system": "34F2", "quantity": "IC50", "result": "46.8 µM"}
{"Molecule": "COc1ccc2cc1Oc1cc(ccc1OC)CCC(N[C@@H]1CCCc3ccccc31)CCCC2 (stereo partly drawn)", "target or system": "Bacillus anthracis", "system": "Sterne 34F2", "quantity": "MIC", "result": "> 100 µg/mL"}
{"Molecule": "Cn1cnc(Cn2c(=O)[nH]/c(=N\\c3cc4cn(C)nc4cc3Cl)n(Cc3cc(F)c(F)cc3F)c2=O)n1", "system": "human, normal renal function", "conditions": "oral, 375 mg", "quantity": "dry mouth TEAE, Moderate severity", "result": "0%"}
{"Molecule": "O=c1oc(Cl)c(Cl)c2ccccc12", "target or system": "Replicase polyprotein 1ab, main protease (rep, Severe acute respiratory syndrome coronavirus 2, UniProt P0DTD1)", "test": "reporter gene (mKate2), inhibitor", "conditions": "20 µM", "quantity": "inhibition", "result": "0.169%"}
{"Molecule": "CC[C@H](C)[C@H](NC(=O)[C@H](CC(C)C)NC(=O)[C@H](Cc1c[nH]c2ccccc12)NC(=O)[C@H](CCC(N)=O)NC(=O)[C@@H](NC(=O)[C@H](Cc1ccccc1)NC(=O)[C@H](C)NC(=O)[C@H](CCCCNC(=O)COCCOCCNC(=O)COCCOCCNC(=O)CC[C@H](NC(=O)CCCCCCCCCCCCCCCCCCC(=O)O)C(=O)O)NC(=O)[C@H](CCC(N)=O)NC(=O)[C@H](C)NC(=O)[C@@H](NC(=O)[C@H](CCCCN)NC(=O)[C@H](CC(=O)O)NC(=O)[C@H](CC(C)C)NC(=O)C(C)(C)NC(=O)[C@@H](NC(=O)[C@H](CO)NC(=O)[C@H](Cc1ccc(O)cc1)NC(=O)[C@H](CC(=O)O)NC(=O)[C@H](CO)NC(=O)[C@@H](NC(=O)[C@H](Cc1ccccc1)NC(=O)[C@@H](NC(=O)CNC(=O)[C@H](CCC(=O)O)NC(=O)C(C)(C)NC(=O)[C@@H](N)Cc1ccc(O)cc1)[C@@H](C)O)[C@@H](C)O)[C@@H](C)CC)[C@@H](C)CC)C(C)C)C(=O)N[C@@H](C)C(=O)NCC(=O)NCC(=O)N1CCC[C@H]1C(=O)N[C@@H](CO)C(=O)N[C@@H](CO)C(=O)NCC(=O)N[C@@H](C)C(=O)N1CCC[C@H]1C(=O)N1CCC[C@H]1C(=O)N1CCC[C@H]1C(=O)N[C@@H](CO)C(N)=O", "system": "healthy subjects, single ascending dose", "conditions": "0.5 mg, day 29", "quantity": "serum lipase", "result": "26.3 ± 8 U/L"}
{"Molecule": "CC(C)CCCCCCCCCCCCCCc1cc(O)cc(O)c1", "target or system": "Bacillus anthracis", "system": "34F2", "quantity": "IC50", "result": "20.5 µM"}
{"Molecule": "CSc1nc(Cl)cc(Sc2nnc(-c3cc(C(F)(F)F)cc(C(F)(F)F)c3)[nH]2)n1", "target or system": "Bacillus anthracis", "system": "Sterne", "conditions": "16 h", "quantity": "MIC", "result": "3.1 µM"}
{"Molecule": "Cn1c(=O)ccc2ccc(F)c(CCNC[C@H]3CN(c4cnc5c(n4)NC(=O)CO5)C(=O)O3)c21", "target or system": "Bacillus anthracis", "quantity": "MIC90", "result": "< 0.015 µg/mL"}
{"note": "For quick reference, copied from above:"}
{"Molecule": "Plantazolicin", "target or system": "Bacillus anthracis", "system": "Sterne", "quantity": "MIC", "result": "2 µg/mL"}
